# Measured values pooled from the literature.
# A part holds a random share of what one study measured.

# Study 1
# Target: Interferon regulatory factor 7, full length, phosphomimetic (IRF7, Homo sapiens, UniProt Q92985, residues 1-503, S471D/S472D/S475D/S476D/S477D/S483D/S484D/S487D)
# UniProt Q92985, sequence (whole entry, unmodified, looked up): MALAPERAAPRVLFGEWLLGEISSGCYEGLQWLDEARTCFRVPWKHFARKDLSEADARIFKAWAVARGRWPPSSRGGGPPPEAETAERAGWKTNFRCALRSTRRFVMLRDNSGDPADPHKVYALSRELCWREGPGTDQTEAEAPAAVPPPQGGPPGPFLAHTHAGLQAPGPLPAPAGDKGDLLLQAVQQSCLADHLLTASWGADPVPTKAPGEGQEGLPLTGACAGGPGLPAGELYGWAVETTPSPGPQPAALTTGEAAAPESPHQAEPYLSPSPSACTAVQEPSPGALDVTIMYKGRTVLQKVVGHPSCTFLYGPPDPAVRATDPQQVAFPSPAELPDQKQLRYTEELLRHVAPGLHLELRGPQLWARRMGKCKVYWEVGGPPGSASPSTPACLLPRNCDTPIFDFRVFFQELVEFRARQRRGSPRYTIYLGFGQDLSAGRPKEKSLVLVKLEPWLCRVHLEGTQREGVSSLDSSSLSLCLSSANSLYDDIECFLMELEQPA
# Technique: protein-binding microarray
# Molecule type: double-stranded DNA, one strand shown
# Medium: in vitro
# Tested at: 2200 nM top
# Notes: 60-bp whole probe
# Added: salmon DNA 0.4 mg/ml
# Baseline: random background probes
# Direction: higher = stronger binding
Sequence,fitted relative affinity
GCCTAGCACCCCTTTTAAGTTCTCTGAAGGTGCTAGGTCTTGATTCGCTTGACGCTGCTG,1.21 z-score
GCCTAGCACGACGGTATCGACTTTCAGGACGTGCTAGTCTTGATTCGCTTGACGCTGCTG,0.935 z-score
GCCTAGCACTACGGACTGGGACTGGGGACGTGCTAGGTCTTGATTCGCTTGACGCTGCTG,-0.877 z-score
GCCTAGCACGACGATCTAAGTATCGAGACGTGCTAGGTCTTGATTCGCTTGACGCTGCTG,0.049 z-score

# Study 2
# Target: Centromere-binding protein 1, full length, N-terminal tag (CBF1, Saccharomyces cerevisiae, UniProt P17106, residues 1-351)
# UniProt P17106, sequence (whole entry, looked up): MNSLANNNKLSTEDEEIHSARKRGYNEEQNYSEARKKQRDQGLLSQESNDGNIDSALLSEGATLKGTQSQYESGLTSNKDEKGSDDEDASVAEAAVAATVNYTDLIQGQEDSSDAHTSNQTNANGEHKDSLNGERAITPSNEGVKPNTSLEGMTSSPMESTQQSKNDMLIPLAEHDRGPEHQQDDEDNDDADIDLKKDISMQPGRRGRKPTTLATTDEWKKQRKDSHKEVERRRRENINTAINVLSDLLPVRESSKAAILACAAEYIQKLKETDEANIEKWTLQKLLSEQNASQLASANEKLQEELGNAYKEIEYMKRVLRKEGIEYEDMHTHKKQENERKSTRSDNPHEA
# Technique: protein-binding microarray
# Molecule type: double-stranded DNA, one strand shown
# Medium: in vitro
# Tested at: 0.8 µM
# Notes: whole 60-bp probe, no competitor
# Direction: higher = stronger binding
Sequence,fluorescence intensity [a.u.]
TGTACGAAGCTATAAAACATGCGTATAGTAGTTAGGGTCTTGATTCGCTTGACGCTGCTG,522
GAACTAAGATATTCCCACATGGACAAGTGCCACTAGGTCTTGATTCGCTTGACGCTGCTG,554
GAATTCGACACAGATCATGTGCTTGTTTCTCGTTAGGTCTTGATTCGCTTGACGCTGCTG,1920
CTACTCAATTTGGTGAGCGTGCGGCTGATGGTCTTCGTCTTGATTCGCTTGACGCTGCTG,549

# Study 3
# Target: Max dimerization protein 1, bHLH-zipper, MAX partner unstated (MXD1, Homo sapiens, UniProt Q05195, residues 56-136)
# Technique: protein-binding microarray
# Molecule type: double-stranded DNA, one strand shown
# Medium: in vitro
# Tested at: not given
# Notes: k-mer, scored over probes, only values ≥0.25
# Direction: higher = stronger binding
# Construct (chain): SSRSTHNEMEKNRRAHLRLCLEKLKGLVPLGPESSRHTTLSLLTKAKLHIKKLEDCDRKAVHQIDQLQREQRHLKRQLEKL
Sequence,E-score
ACAACATG,0.352
GACCACGC,0.41
ACGTGTAG,0.349
ACAGCGTG,0.36

# Single results of other studies
Molecule,target,test,system,conditions,how to read,quantity,result
"PhoQ, residues 284 288 289 292 302 303 HSYLQF","PhoP, residues 12 14 15 18 19 SEGLL (Escherichia coli, UniProt P23836)","Sort-seq, refers to: YFP reporter",E. coli,"PhoQ-PhoP variant library, added: 10 µM Mg2+","baseline: high Mg2+ state, higher = stronger signaling",fold induction,12

# A few entries again (study 1):
Sequence,fitted relative affinity
GCCTAGCACTACGGACTGGGACTGGGGACGTGCTAGGTCTTGATTCGCTTGACGCTGCTG,-0.877 z-score
GCCTAGCACGACGATCTAAGTATCGAGACGTGCTAGGTCTTGATTCGCTTGACGCTGCTG,0.049 z-score
